{"data": "Results pooled from the literature", "note": "Each numbered part is a random draw from the data of one study; scales do not carry over between parts."}
{"data": "Sample 1", "target": "RNA binding protein fox-1 homolog 2, RRM domain, GST-SBP tag (RBFOX2, Homo sapiens, UniProt O43251-10, residues 100-194)", "method": "RNA Bind-n-Seq", "form": "RNA", "sample": "in vitro", "concentration": "365 nM", "notes": "natural RNA segment, single round, ends assumed", "baseline": "no-protein control", "direction": "higher = stronger binding", "shared flanks, not repeated": "GGGAGUUCUACAGUCCGACGAUC … UGGAAUUCUCGGGUGCCAA", "Residues (chain)": "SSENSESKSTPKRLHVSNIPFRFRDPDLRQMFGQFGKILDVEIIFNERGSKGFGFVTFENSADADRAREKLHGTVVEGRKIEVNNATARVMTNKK"}
{"Strand": "ACUUGAGAGUGUUGCUCUGGUAUUCUGGGUUCUGAAGUCUGGUAUUCUGGUAUUCUGGGUUCAAAAGUAUGACUUGAGAGUGUUGCUCUGGUAUUCUGAGAGUUGCUCUG", "RBNS enrichment (R)": 0.327}
{"Strand": "CAUUCUGUAAAUCCUGAUGAUCGAUUUUGUCUAAGUAGCCCCACUGAGGCGUUGAGAAUGGGGCAUGCAGAUUAUAAAAACACAACUGGAGAAAUCAGCAGCAAAGAAGA", "RBNS enrichment (R)": 0.866}
{"Strand": "UUAUGAUAUCUUCCAGUUUUUGCUUUCAUAGGUCAGAGAUCUAUCUUGUGUGUGCGUUAGACUUGAUGAGAAGGUGUGAACUCUGCAGAAAGUCUCUUCUUCAUCACUGA", "RBNS enrichment (R)": 1.08}
{"Strand": "AUGAGGGGUAGCCUCCCACUGCAUCCCAUCCUGAAUAUCCUUUGCAACUCCCCAAGAGUGCUUAUUUAAGUGUUAAUACUUUUAAGAGAACUGCGACGAUUAAUUGUGGA", "RBNS enrichment (R)": 1.27}
{"Strand": "UGCCAUCAACAUUGCUUGAAAUGCCUCUAUGUUCUGAAUAAAGAAAAACCAUAAUUGCUUGUGGUGAAACGAAGCAGUCUUCAUGUUAAGUAGCAAUGGUUAUUUUUAUU", "RBNS enrichment (R)": 0.385}
{"Strand": "UUUAAAAUACCUUCACAAGUGAACAUUACACACAGAAGUUCAUUUGGUUUUCCUUUGUUUUAUGGUGCAUAUAGCAAUAAAGACCCCCCUCCACCCUGCAACCCCCAUCC", "RBNS enrichment (R)": 0.855}
{"Strand": "UCCUAGGACUCUGUACUUGAUUUUAAGCACUGGAGGAAACACCUCAGCAGUUUUGUGGUCUGCUAAUUGUGUGCUGCACACACAGCUGCCUGCUCUAGGGCCUGCCCAGC", "RBNS enrichment (R)": 0.267}
{"Strand": "AGGGAUUUCCUAUGGAAGUCCUGCUUUAUUCCAGGUGAAGGGAAGGAAGUGUAUAUACUUUUGGCAAGUCAUACAGCUCAAAUGUGAUGAGAUUUCUGAUGUUAGAGGGA", "RBNS enrichment (R)": 0.726}
{"Strand": "AGGGAAUAAGCCAUGACGUCAAUAGCAGCCCAGGGCACUUCAGAGUAGAGGGCUUGGGAAGAUCUUUUAAAAAGGCAGUAGGCCCGGUGUGGUGGCUCACGCCUAUAAUC", "RBNS enrichment (R)": 0.726}
{"Strand": "UCACUAUAUAUCCCUGCAUAGAUUCCUAAUUAUGCCGUUUCUAAAUCUUAACCGAUUUCUUGAACAGUGUUUAAGUACAGUGUGAUUUGUGCCCCGAGACAGUCAGAACA", "RBNS enrichment (R)": 0.464}
{"Strand": "AUAUUAUCAUGUCAGACACCUUCAGCCACAGCACAAAGUUUUAAUGUCUUUAAGAAAAAGAAAUCAAUCUGCAGAAAUGUGAAGAUUUGCAAGCAGUGUAAACUGCAACU", "RBNS enrichment (R)": 0.581}
{"Strand": "AGGGAAAUUGGGGCUAAUGAGAUCAGUGCCAAAUUUCAGCAGAUACCUGUGAGGCUGACACCUGUUGCAGACUAUGGAGUGGUGAGAUUUGGGAAAGUUGGGCUAUAUGU", "RBNS enrichment (R)": 1.27}
{"data": "Sample 2", "target": "Sal-like protein 4, full length isoform B (SALL4, Homo sapiens, UniProt Q9UJQ4-2, residues 1-616)", "method": "universal PBM", "form": "double-stranded DNA, one strand shown", "sample": "in vitro", "concentration": "not given", "notes": "8-mer, flanks averaged, mean of replicates", "direction": "higher = stronger binding"}
{"Strand": "CCTTGACG", "E-score": -0.151}
{"Strand": "ACGATCGC", "E-score": -0.0994}
{"Strand": "CCAGCTAA", "E-score": -0.0931}
{"Strand": "TCTAAAAA", "E-score": 0.172}
{"Strand": "GGGTGTAC", "E-score": -0.0219}
{"Strand": "CAGCTCCC", "E-score": -0.308}
{"Strand": "TGAAACAA", "E-score": 0.254}
{"Strand": "CTCGCAGA", "E-score": -0.211}
{"Strand": "CTCCTAAA", "E-score": 0.0339}
{"Strand": "ATCGTCAG", "E-score": 0.032}
{"Strand": "AAGCGTTA", "E-score": 0.0585}
{"Strand": "CCGTAGAA", "E-score": -0.0903}
{"Strand": "CAGATGGG", "E-score": -0.0319}
{"Strand": "CGACCTCC", "E-score": -0.211}
{"Strand": "CGACATAC", "E-score": 0.00692}
{"Strand": "GTACAGAC", "E-score": 0.158}
{"Strand": "GCAATTCC", "E-score": 0.0367}
{"Strand": "GGTAGAAC", "E-score": -0.158}
{"data": "Sample 3", "cell line": "yeast with cyclin D2-Cln2 chimera", "observed": "cell growth", "action": "binder", "method": "competitive growth deep sequencing", "form": "peptide", "concentration": "concentration not given", "notes": "peptide tiling library", "direction": "direction not given"}
{"Sequence": "DSDSDSEGGAAGGEAD", "growth enrichment score": 0.798}
{"Sequence": "PLRKAKRARLCSSSSS", "growth enrichment score": 0.244}
{"Sequence": "PAKRRLELGE", "growth enrichment score": 1.21}
{"Sequence": "ALTMEALEDPSPELME", "growth enrichment score": 0.315}
{"Sequence": "VLLKRLQDVVSERANH", "growth enrichment score": 3.48}
{"Sequence": "VKRLNFRSEEME", "growth enrichment score": -1.18}
{"Sequence": "EPRNLLSLFEDTLDPT", "growth enrichment score": -0.77}
{"Sequence": "ESSQLTVQAEFDMSAI", "growth enrichment score": 0.0688}
{"Sequence": "IVLICAKRSLCAAFSV", "growth enrichment score": -1.3}
{"Sequence": "PARRRLRLSVDEVSSP", "growth enrichment score": -0.343}
{"Sequence": "LRRQLSFSED", "growth enrichment score": -0.0585}
{"Sequence": "NARRSLNFGGSTGT", "growth enrichment score": -0.364}
{"Sequence": "KRCATPVIIDEILPSK", "growth enrichment score": 0.59}
{"Sequence": "AIRKMREDRWAVIAKM", "growth enrichment score": 1.05}
{"Sequence": "IPDRSTKPVVFSPT", "growth enrichment score": 1.03}
{"Sequence": "GQLVIPLDELTLDTSF", "growth enrichment score": 0.567}
{"Sequence": "DTERAHSTLDEDLERW", "growth enrichment score": 0.802}
{"Sequence": "RRVLCFDS", "growth enrichment score": -0.0115}
{"Sequence": "KPITLDTTDFQESFVT", "growth enrichment score": 0.255}
{"data": "Sample 4", "target": "Protein C-ets-1 (ETS1, Homo sapiens, UniProt P14921, residues 1-441, Y397A, full length assumed)", "method": "protein-binding microarray", "form": "double-stranded DNA, one strand shown", "sample": "in vitro", "concentration": "not given", "notes": "k-mer, scored over probes, only values ≥0.25", "direction": "higher = stronger binding", "sequence of UniProt P14921 (whole entry, unmodified, looked up)": "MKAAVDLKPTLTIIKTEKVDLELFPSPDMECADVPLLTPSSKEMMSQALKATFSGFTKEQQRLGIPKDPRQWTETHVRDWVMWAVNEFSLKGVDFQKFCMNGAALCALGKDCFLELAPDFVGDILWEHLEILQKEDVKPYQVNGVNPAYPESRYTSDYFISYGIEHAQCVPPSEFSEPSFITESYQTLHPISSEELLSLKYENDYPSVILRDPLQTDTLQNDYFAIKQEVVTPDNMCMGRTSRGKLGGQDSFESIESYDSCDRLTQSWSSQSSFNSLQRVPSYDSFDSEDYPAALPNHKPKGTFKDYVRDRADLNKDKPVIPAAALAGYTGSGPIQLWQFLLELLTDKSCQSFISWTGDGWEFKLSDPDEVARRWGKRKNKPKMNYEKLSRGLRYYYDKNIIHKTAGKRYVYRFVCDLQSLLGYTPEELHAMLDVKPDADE"}
{"Strand": "AAATGTCA", "E-score": 0.319}
{"Strand": "ACTTCCTG", "E-score": 0.408}
{"Strand": "GCATCCGC", "E-score": 0.295}
{"Strand": "AGTATATA", "E-score": 0.272}
{"Strand": "GACCGGAA", "E-score": 0.339}
{"Strand": "CGCGCGTA", "E-score": 0.299}
{"Strand": "GGTGGGGA", "E-score": 0.409}
{"Strand": "GACGGCAA", "E-score": 0.328}
{"Strand": "ACATCCGT", "E-score": 0.335}
{"Strand": "GAATTTCC", "E-score": 0.272}
{"Strand": "ACAATGTC", "E-score": 0.262}
{"Strand": "GCACGTGC", "E-score": 0.258}
{"Strand": "CTACAAAC", "E-score": 0.296}
{"Strand": "CAACCCCA", "E-score": 0.297}
{"Strand": "AAATTTGT", "E-score": 0.253}
{"Strand": "GACAAAGA", "E-score": 0.329}
{"Strand": "ATTTGCCG", "E-score": 0.259}
{"Strand": "CATCCGTA", "E-score": 0.283}
{"Strand": "CACTGTCA", "E-score": 0.311}
{"Strand": "CATATGGG", "E-score": 0.257}
{"Strand": "CTGCGACA", "E-score": 0.284}
{"Strand": "CAAATGTG", "E-score": 0.269}
{"Strand": "CGCATATC", "E-score": 0.279}
{"Strand": "CTGTCAAC", "E-score": 0.29}
{"Strand": "GCGTCAAA", "E-score": 0.258}
{"data": "Sample 5", "target": "Histone acetyltransferase KAT6A, winged helix 1, GST fusion (KAT6A, Homo sapiens, UniProt Q92794, residues 1-85)", "method": "protein binding microarray", "form": "double-stranded DNA, one strand shown", "sample": "in vitro", "concentration": "not given", "notes": "8-mer, flanks averaged, mean of 2 arrays, mostly near background", "baseline": "not given", "direction": "higher = stronger binding", "Target sequence (chain)": "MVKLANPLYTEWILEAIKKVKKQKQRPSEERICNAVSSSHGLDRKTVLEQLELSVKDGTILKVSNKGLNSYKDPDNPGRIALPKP"}
{"Strand": "CATGTAAC", "E-score": 0.12}
{"Strand": "CATTTTAG", "E-score": 0.00617}
{"Strand": "AAGTTACA", "E-score": -0.159}
{"Strand": "CTGTGACA", "E-score": -0.292}
{"Strand": "AATAACAG", "E-score": -0.0256}
{"Strand": "ACGAACGC", "E-score": 0.161}
{"Strand": "GTACCGGA", "E-score": 0.122}
{"Strand": "CCAACTGG", "E-score": -0.224}
{"Strand": "ATCTACTC", "E-score": 0.0348}
{"Strand": "ATCGAGAG", "E-score": -0.177}
{"Strand": "ACGCGCAA", "E-score": 0.372}
{"Strand": "CACACCTA", "E-score": 0.0745}
{"Strand": "CAAGTTAG", "E-score": -0.0364}
{"Strand": "AGGGGAAT", "E-score": -0.0881}
{"Strand": "ACCTCGAA", "E-score": -0.265}
{"Strand": "CGTGGTTC", "E-score": 0.132}
{"Strand": "AGGGGCAA", "E-score": -0.138}
{"data": "Sample 6", "target": "PABPC1L2, full length, GST fusion (mouse, UniProt A0ABA7IW68)", "method": "RNAcompete", "form": "RNA", "sample": "in vitro", "concentration": "20 nM", "notes": "7-mer, probes averaged, single round", "baseline": "mean of 7-mers", "direction": "higher = stronger binding", "Residues (chain)": "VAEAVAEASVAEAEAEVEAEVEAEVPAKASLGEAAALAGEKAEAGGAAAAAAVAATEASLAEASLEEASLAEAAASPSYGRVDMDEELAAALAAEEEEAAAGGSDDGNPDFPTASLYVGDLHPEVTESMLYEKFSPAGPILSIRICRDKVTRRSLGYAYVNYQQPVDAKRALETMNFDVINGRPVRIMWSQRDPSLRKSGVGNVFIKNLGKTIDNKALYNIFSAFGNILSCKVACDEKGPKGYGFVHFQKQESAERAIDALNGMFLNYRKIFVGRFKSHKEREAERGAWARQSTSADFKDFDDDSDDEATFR"}
{"Strand": "UGGGAUC", "7-mer Z-score": 0.0696}
{"Strand": "GUUCCGA", "7-mer Z-score": 0.0297}
{"Strand": "UCCUGGA", "7-mer Z-score": -0.135}
{"Strand": "CAAGGCC", "7-mer Z-score": -0.161}
{"Strand": "UUACCUG", "7-mer Z-score": -0.193}
{"Strand": "GACCUUA", "7-mer Z-score": -0.164}
{"Strand": "UCAAUCU", "7-mer Z-score": -0.117}
{"Strand": "GUGGGCA", "7-mer Z-score": 0.379}
{"Strand": "CUCGCCU", "7-mer Z-score": -0.354}
{"Strand": "CUCGUCC", "7-mer Z-score": -0.505}
{"Strand": "CGGCUCG", "7-mer Z-score": -0.338}
{"Strand": "AACAAGA", "7-mer Z-score": 0.802}
{"Strand": "UUCGACG", "7-mer Z-score": -0.235}
{"Strand": "GAGUUGC", "7-mer Z-score": -0.191}
{"Strand": "ACCAUCG", "7-mer Z-score": -0.318}
{"Strand": "CAGUGUG", "7-mer Z-score": -0.0283}
{"Strand": "CUUAAGU", "7-mer Z-score": -0.32}
{"Strand": "UAUUCCA", "7-mer Z-score": -0.18}
{"Strand": "GGUGCGG", "7-mer Z-score": 0.202}
{"Strand": "UAUUGGG", "7-mer Z-score": 0.204}
{"note": "For quick reference, copied from above (sample 4):"}
{"Strand": "AAATGTCA", "E-score": 0.319}
{"Strand": "ACTTCCTG", "E-score": 0.408}
{"Strand": "GCATCCGC", "E-score": 0.295}
{"Strand": "AGTATATA", "E-score": 0.272}
{"Strand": "GACCGGAA", "E-score": 0.339}
{"Strand": "CGCGCGTA", "E-score": 0.299}
{"Strand": "GGTGGGGA", "E-score": 0.409}
{"Strand": "GACGGCAA", "E-score": 0.328}
{"Strand": "ACATCCGT", "E-score": 0.335}
{"Strand": "GAATTTCC", "E-score": 0.272}
